Assay results of several laboratories.
Each numbered part is a random draw from the data of one study; scales do not carry over between parts.
UniProt Q9NY57, sequence (whole entry, looked up): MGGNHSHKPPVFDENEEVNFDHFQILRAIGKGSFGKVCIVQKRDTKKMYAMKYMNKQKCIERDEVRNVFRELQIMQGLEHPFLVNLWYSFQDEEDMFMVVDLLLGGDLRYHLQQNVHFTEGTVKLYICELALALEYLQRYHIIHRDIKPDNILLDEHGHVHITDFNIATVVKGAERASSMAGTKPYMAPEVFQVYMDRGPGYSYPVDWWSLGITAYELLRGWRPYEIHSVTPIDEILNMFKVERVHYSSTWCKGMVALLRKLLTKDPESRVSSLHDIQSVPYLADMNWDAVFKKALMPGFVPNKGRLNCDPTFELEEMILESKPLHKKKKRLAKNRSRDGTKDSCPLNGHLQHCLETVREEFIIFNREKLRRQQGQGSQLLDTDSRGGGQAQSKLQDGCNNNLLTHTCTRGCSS
UniProt P06213, sequence (whole entry, looked up): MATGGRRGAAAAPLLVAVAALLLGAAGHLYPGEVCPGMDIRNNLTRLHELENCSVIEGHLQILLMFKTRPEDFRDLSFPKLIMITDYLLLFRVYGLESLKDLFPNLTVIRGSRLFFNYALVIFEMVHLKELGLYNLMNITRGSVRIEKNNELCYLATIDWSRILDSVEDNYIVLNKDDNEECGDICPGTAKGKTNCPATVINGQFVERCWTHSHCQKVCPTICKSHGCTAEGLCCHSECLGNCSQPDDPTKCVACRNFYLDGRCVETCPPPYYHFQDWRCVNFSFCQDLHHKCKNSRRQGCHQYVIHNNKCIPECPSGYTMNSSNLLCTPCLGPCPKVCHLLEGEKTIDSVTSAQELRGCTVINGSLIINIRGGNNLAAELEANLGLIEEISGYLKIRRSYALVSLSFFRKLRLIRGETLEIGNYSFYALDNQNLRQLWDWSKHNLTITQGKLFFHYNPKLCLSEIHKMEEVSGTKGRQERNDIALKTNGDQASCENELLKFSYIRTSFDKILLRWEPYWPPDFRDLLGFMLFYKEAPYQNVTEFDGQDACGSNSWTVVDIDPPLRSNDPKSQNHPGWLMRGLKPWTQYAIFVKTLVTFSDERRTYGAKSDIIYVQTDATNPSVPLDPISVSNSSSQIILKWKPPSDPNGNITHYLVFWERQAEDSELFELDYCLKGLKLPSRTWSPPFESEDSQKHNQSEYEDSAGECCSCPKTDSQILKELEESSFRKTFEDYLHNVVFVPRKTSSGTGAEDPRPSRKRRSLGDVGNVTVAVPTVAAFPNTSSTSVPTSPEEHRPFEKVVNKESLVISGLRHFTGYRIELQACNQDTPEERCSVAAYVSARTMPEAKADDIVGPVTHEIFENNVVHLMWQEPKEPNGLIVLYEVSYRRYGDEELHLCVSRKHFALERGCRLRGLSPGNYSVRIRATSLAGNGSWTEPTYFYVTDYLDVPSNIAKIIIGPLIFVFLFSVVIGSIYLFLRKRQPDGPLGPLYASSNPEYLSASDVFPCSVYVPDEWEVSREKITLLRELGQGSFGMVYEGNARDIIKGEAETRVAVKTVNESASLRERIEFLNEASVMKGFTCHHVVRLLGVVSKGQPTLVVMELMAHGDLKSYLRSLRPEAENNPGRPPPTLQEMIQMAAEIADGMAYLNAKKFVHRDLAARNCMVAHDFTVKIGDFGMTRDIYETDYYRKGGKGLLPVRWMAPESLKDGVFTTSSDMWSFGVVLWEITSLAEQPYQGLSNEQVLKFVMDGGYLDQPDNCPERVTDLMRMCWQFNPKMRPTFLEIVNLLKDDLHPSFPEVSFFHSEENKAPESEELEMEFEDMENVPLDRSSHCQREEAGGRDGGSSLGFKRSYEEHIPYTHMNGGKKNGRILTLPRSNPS
UniProt Q16288, sequence (whole entry, looked up): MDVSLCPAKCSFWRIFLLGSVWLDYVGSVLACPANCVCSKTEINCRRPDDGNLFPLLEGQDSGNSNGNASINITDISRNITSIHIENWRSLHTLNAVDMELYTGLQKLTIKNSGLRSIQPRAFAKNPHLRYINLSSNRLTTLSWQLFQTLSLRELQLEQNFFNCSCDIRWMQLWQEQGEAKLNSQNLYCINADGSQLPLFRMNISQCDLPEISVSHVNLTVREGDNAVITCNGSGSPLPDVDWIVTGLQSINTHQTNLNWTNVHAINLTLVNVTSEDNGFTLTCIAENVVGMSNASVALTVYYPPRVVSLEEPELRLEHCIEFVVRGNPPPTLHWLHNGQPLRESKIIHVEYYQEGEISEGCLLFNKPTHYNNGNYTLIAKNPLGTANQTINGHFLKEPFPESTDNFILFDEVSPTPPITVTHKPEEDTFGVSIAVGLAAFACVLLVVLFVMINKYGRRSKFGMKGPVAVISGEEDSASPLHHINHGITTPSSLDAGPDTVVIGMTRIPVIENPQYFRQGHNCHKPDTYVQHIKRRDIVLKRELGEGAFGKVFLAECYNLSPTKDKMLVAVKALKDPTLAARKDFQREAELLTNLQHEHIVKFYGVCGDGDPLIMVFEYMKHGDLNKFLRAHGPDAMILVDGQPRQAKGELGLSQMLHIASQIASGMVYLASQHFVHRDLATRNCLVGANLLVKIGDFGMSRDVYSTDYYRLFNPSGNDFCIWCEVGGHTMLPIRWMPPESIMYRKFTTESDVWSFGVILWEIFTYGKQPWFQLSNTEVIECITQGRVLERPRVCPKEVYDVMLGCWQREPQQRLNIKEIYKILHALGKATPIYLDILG
UniProt Q8IWQ3, sequence (whole entry, looked up): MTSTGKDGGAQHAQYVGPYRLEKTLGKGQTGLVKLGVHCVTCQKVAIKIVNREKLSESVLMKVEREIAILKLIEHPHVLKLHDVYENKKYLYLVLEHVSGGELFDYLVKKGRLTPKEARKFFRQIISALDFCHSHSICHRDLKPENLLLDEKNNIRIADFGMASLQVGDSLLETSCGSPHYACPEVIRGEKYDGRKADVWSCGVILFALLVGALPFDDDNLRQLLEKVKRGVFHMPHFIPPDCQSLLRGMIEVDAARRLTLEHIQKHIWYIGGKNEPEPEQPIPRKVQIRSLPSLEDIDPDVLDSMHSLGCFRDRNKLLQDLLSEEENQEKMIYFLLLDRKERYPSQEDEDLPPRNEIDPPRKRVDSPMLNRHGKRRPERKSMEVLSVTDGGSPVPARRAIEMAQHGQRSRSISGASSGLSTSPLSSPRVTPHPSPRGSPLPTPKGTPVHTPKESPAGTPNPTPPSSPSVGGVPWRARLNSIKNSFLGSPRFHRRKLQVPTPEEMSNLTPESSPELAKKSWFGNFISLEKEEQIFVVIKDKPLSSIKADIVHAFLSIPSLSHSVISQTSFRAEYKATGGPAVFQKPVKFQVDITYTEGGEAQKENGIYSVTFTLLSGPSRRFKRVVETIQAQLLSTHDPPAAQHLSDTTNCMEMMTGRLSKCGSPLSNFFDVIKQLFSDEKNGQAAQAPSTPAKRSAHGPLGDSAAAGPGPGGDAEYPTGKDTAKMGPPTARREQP
UniProt P36897, sequence (whole entry, looked up): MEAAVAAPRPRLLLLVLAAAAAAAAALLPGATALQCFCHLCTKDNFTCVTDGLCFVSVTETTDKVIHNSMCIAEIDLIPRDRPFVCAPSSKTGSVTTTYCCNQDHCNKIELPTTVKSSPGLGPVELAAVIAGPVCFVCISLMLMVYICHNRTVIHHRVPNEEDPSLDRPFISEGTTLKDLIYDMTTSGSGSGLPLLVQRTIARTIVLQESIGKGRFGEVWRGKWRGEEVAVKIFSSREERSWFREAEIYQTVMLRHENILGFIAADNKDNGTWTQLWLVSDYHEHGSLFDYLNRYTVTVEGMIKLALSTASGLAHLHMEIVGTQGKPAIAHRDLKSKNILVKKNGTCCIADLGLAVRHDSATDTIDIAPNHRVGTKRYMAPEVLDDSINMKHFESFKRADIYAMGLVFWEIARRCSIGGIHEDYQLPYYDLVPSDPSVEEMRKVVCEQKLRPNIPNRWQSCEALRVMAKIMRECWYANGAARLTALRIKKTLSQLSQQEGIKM

Sample 1 — read-out: enzyme activity; action: inhibitor; tested at: 0.5 µM; relative to: control
Target: Ephrin type-A receptor 7 (EPHA7, Homo sapiens, UniProt Q15375)
UniProt Q15375, sequence (whole entry, looked up): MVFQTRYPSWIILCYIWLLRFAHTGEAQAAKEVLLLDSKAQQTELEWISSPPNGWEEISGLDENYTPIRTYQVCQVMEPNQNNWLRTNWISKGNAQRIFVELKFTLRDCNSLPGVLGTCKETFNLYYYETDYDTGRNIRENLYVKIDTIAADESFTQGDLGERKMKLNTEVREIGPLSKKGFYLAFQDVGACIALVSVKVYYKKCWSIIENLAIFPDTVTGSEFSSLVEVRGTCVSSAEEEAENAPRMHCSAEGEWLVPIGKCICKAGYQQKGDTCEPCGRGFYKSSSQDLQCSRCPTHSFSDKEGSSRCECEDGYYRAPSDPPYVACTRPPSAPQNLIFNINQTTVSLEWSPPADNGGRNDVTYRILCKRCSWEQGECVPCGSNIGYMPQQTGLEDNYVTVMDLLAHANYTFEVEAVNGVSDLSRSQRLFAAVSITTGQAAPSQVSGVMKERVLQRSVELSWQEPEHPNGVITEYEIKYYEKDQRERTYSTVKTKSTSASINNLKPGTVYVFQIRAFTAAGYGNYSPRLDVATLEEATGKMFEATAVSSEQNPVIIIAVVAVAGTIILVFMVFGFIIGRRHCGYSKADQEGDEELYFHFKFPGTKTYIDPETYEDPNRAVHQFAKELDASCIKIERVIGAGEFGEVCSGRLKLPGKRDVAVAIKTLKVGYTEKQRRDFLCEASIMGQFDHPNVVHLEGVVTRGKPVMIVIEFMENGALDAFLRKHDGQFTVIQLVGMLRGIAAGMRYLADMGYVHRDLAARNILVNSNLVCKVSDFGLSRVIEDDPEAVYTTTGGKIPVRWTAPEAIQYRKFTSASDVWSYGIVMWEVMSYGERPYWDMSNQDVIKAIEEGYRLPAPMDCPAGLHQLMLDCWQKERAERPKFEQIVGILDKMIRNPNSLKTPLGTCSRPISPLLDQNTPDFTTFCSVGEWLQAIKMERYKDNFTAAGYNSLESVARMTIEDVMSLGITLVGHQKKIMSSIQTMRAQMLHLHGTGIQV
SMILES | remaining activity [%]
Nc1ccc2ncnc(NCCc3ccc(Oc4ccccc4)cc3)c2c1 | 104
COc1cc2nccc(Oc3ccc(NC(=S)NC(=O)c4ccccc4C)cc3)c2cc1OC | 90.4
COc1ccc(OC)c2c(=S)c3ccccc3[nH]c12 | 89.7
CC(C)[C@H](CO)Nc1nc(Nc2cc(N)cc(Cl)c2)c2ncn(C(C)C)c2n1 | 80.2
O=C1NC(=O)C(c2cn(CCCn3ccnc3)c3ccccc23)=C1Nc1ccccc1 | 89.5
Cc1ccc(NC(=O)c2ccc(CN3CCN(C)CC3)cc2)cc1Nc1nc(-c2cccnc2)cs1 | 99.7
Cn1sc(=O)n(Cc2ccccc2)c1=O | 105
CCOC(=O)c1c(C)[nH]c(/C=C2\C(=O)Nc3ccccc32)c1C | 85.3
CN(C)c1ccc(C=C2C(=O)Nc3ccccc32)cc1 | 99.1
CNC(=O)c1cc(Oc2ccc(NC(=O)Nc3ccc(Cl)c(C(F)(F)F)c3)cc2)ccn1 | 80.7
O=C1NC(=O)C(c2cn(CCCO)c3ncccc23)=C1c1cnccn1 | 105
COc1cc2ncnc(Nc3ccc(Oc4ccccc4)cc3)c2cc1OC | 100
NCCNc1ncc(C(N)=O)c(Nc2cccc(C(F)(F)F)c2)n1 | 82
Cc1nc(-c2ccccc2)c(-c2ccncc2)o1 | 91.5
O=S(=O)(c1cccc2cnccc12)N1CCCNCC1 | 97.3
Oc1ccc(-c2nc(-c3ccncc3)c(-c3ccc(F)cc3)[nH]2)cc1 | 86.1

Sample 2 — read-out: cell-free assay; technique: competition with immobilised ligand; tested at: 1 µM
Structure (SMILES): CNC(=O)Nc1ccc2c(c1)[C@@]1(CC2)OC(=O)N(CC(=O)N(Cc2ccc(F)cc2)[C@@H](C)C(F)(F)F)C1=O
target | remaining binding [%]
CAMK1G (Homo sapiens, UniProt Q96NX5) | 100
BRSK2 (Homo sapiens, UniProt Q8IWQ3) | 90
Insulin receptor (INSR, Homo sapiens, UniProt P06213) | 73
ALK (Homo sapiens, UniProt Q9UM73, L1196M) | 88
PLK4 (Homo sapiens, UniProt O00444) | 100
EPHA4 (Homo sapiens, UniProt P54764) | 86
NTRK3 (Homo sapiens, UniProt Q16288) | 82
TGFBR1 (Homo sapiens, UniProt P36897) | 89
STK32B (Homo sapiens, UniProt Q9NY57) | 67
TRPM6 (Homo sapiens, UniProt Q9BX84) | 98

Sample 3 — cell line: A-375; tested at: 100 µM; time: 36 h
SMILES | viability
Cc1onc(-c2ccccc2)c1-c1ccc(S(N)(=O)=O)cc1 | 75.3%
COc1ccc2c(c1)C(=O)N(CCc1ccc(S(=O)(=O)NC(=O)NC3CCCCC3)cc1)C(=O)C2(C)C | 86.7%
COc1cc(C(=O)NC2CCCNC2)cc(OC)c1OC (centres unmarked) | 103%
c1ccc(C2CN3CCSC3=N2)cc1 (centres unmarked) | 95.7%
C[C@]12CC[C@@H]3c4ccc(O)cc4CC[C@H]3[C@@H]1CC[C@@H]2O | 48.3%
CC(S)C(=O)NCC(=O)O (centres unmarked) | 105%
CCC(C)(C)C(=O)O[C@H]1C[C@@H](C)C=C2C=C[C@H](C)[C@H](CC[C@@H]3C[C@@H](O)CC(=O)O3)[C@H]21 | 28.4%

Sample 4 — host: human; sample: microsomes or S9; tested at: 2 µM; time: 0.5 h
Structure (SMILES) | remaining compound
CC(C)=CCc1c2c(c3occ(-c4ccc(O)c(O)c4)c(=O)c3c1O)C=CC(C)(C)O2 | 45.3%
CCOc1cc(=O)n2c(c1C(=O)NCc1ccccn1)CCCCC2 | 92.3%
CCOC(=O)Cn1c(=O)n(C2CCCCC2)c(=O)c2c3c(sc21)COC(C)(C)C3 | 47.5%
COC(=O)c1c(NC(=O)c2ccco2)sc2c1CCC2 | 1.29%
Cc1cc(NNS(=O)(=O)c2cccs2)n2ncnc2n1 | > 100%
O=C(O)C(c1ccsc1)N1C[C@@H]2Oc3c(F)ccc(F)c3O[C@@H]2C1 (some centres unmarked) | > 100%
CCOC(=O)c1cc(-c2ccc(S(=O)(=O)NC(C)(C)CC)s2)on1 | 0%
Cn1ccnc1CC1CCN(c2cnccn2)CC1 | 79.9%
N=c1c2c(-c3ccccc3)c(-c3ccccc3)n(Cc3ccccc3)c2ncn1CCO | 77.8%
Cn1ccc(Cn2nnn(-c3cccs3)c2=O)cc1=O | 86.5%
COc1cc(=O)[nH]cc1C(=O)N[C@@H]1CCO[C@H]1c1ccc(Cl)cc1 | 59.8%

Repeated from above (sample 4):
Structure (SMILES) | remaining compound
CCOc1cc(=O)n2c(c1C(=O)NCc1ccccn1)CCCCC2 | 92.3%
CCOC(=O)Cn1c(=O)n(C2CCCCC2)c(=O)c2c3c(sc21)COC(C)(C)C3 | 47.5%
COC(=O)c1c(NC(=O)c2ccco2)sc2c1CCC2 | 1.29%
Cc1cc(NNS(=O)(=O)c2cccs2)n2ncnc2n1 | > 100%
